Experimental data from different studies.
Parts stem from different laboratories: compare values within a part only. Several values in a cell are separate wells, animals, samples, runs or records. Substitutions count along the parent as printed.
Chain of UniProt O43293 (whole entry, looked up): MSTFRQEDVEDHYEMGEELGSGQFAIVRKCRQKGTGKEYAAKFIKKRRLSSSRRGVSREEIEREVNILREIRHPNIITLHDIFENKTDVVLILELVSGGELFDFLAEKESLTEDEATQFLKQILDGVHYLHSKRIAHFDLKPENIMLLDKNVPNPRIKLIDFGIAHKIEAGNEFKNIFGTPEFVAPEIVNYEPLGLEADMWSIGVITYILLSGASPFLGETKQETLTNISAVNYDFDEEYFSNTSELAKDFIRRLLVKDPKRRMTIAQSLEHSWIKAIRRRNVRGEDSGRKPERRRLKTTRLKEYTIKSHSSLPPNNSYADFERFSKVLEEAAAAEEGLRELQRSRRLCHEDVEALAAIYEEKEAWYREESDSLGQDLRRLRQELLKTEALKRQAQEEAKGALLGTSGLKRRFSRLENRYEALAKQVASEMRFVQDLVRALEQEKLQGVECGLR

Study 1 — target: CCNA1, cyclin fold, Cln2 fusion (human); method: yeast growth competition, sequencing; medium: yeast; setting: weak parent motif; reference: not given; direction: higher = stronger binding; starting sequence: viral docking peptide; KGVKRKLFAEDSS
Change	normalised enrichment score
KGVKRELFAEDSS [K6E]	1.12
KGVKRKLFAPDSS [E10P]	0.839
KGVKKKLLAEDSS [R5K F8L]	0.219
KGVIRKLFAEDSS [K4I]	0.445
KGVKRKLFAEDVS [S12V]	1.68
KGVKRKLFAEDTS [S12T]	1.59
KGWKRKLFAEDSS [V3W]	-0.0193
KGVKRKLFAYDSS [E10Y]	0.215

Study 2
Structure (SMILES): CC(C)S(=O)(=O)c1ccc2nccc(Nc3ccc4sc(C5CCCC5)nc4c3)c2c1.Cl
cell line	test	conditions	viability
L929	CCK-8	3.125 µM, with: zVAD	112% and 101% and 102% and 96.9%
L929	CCK-8	50 µM, with: zVAD	54.3% and 52.4% and 54.8% and 55.9%
L929 RIPK3 knockout		6.25 µM	102% and 105% and 98.9% and 104%
L929 RIPK3 knockout		50 µM, with: zVAD	59.9% and 62.7% and 63.4% and 64.1%
L929 RIPK3 knockout		0.781 µM	108% and 102% and 95.9% and 101% and 96.2%
L929 RIPK3 knockout		0.781 µM, with: zVAD	102% and 99.5% and 100% and 99%
L929	CCK-8	50 µM	54.2% and 54.3% and 55.5% and 54.5%
L929	CCK-8	1.563 µM, with: zVAD	96% and 94.7% and 96.9% and 93.9% and 96.7%
L929 RIPK3 knockout		6.25 µM, with: zVAD	102% and 104% and 105%

Study 3 — read-out: peptide-MHC binding; molecule type: peptide; concentration: concentration not given
Target: HLA class I histocompatibility antigen, C alpha chain, allele C*04:01 (Homo sapiens, UniProt P10321)
Sequence	binding
YYRYPTGESY	inactive
RQRAVRMVL	inactive
CSDAFYPFY	inactive
RYSGFVRTL	inactive
SARRRHLVF	inactive
FLLPILSQIYT	inactive
LMYPTTLLK	inactive
MYMALIAAF	inactive

Other studies, line by line
Structure (SMILES)	target	test	conditions	measurement	value
Cn1cncc1[C@@](O)(COc1ccc(C#N)cc1-c1ccc(OC(F)(F)F)cc1)c1ccc(C#N)cc1	Death-associated protein kinase 3 (DAPK3, Homo sapiens, UniProt O43293)	cell-free assay, competition with immobilised ligand	1 µM	remaining binding	100%

Excerpt of the above (study 3):
Sequence	binding
CSDAFYPFY	inactive
FLLPILSQIYT	inactive
